Published values from different studies.
Each line is one published result; not all experiments were run side by side.

| SMILES | target or system | assay | system | setting | how to read | measurement | result |
| --- | --- | --- | --- | --- | --- | --- | --- |
| CC(C)NCC(O)c1ccc(O)c(O)c1 (stereo not drawn) | – | – | ventricular cardiomyocytes, C57BL/6 mouse | dose not given, 0.28 s | – | sarcomere length | 1.7 µm |
| CC1=C(Cn2cc(CN3CCOCC3)nn2)C(=O)c2ccccc2C1=O | Schistosoma mansoni | – | adult worms | 25 µM, 24 h | – | killing | 45.5% |
| Cn1cc(-c2ccc(-c3cncc(Cl)c3N3CCC4(CCNC4=O)CC3)cc2)cn1 | COLO 205 | gene expression, microarray, refers to: TUBD1 mRNA | – | concentration not given, 2 h | baseline: untreated cells | log2 fold change | -2.03 |
| CCCc1nc(C(C)(C)O)c(C(=O)OCc2oc(=O)oc2C)n1Cc1ccc(-c2ccccc2-c2nnn[nH]2)cc1 | Nedd8-cullin1 interaction | neddylation, AlphaScreen | – | 100 µM | – | inhibition | 79.6% |
| CC1=C(Cn2cc([Si](C)(C)C)nn2)C(=O)c2ccccc2C1=O | Schistosoma mansoni | – | adult worms | 10 µM, 72 h | – | killing | 43.8% |
| CCn1cc(-c2cc(Cn3ccnc3)cc3c2CCN([C@H](c2cc(OC)ccn2)C2CC2)C3=O)c(C(F)(F)F)n1 | HEC-1B | cell growth, inhibitor | – | 120 h | – | EC50 | 3.68 µM |
| CCC(=O)O[C@@H](O[P@](=O)(CCCCc1ccccc1)CC(=O)N1C[C@H](C2CCCCC2)C[C@H]1C(=O)[O-])C(C)C.[Na+] | Nedd8-cullin1 interaction | neddylation, AlphaScreen | – | 100 µM | – | inhibition | 96.8% |
| CC1=C(Cc2cn(CCN3CCC(=O)CC3)nn2)C(=O)c2ccccc2C1=O | Schistosoma mansoni | – | adult worms | 25 µM, 48 h | – | killing | 47.4% |
| C[N+](C)(C)CCOP(=O)([O-])OP(=O)([O-])OC[C@H]1O[C@@H](n2ccc(N)nc2=O)[C@H](O)[C@@H]1O.[Na+] | Nedd8-cullin1 interaction | neddylation, AlphaScreen | – | 100 µM | – | inhibition | 1.3% |
| CC1=C(Cc2cn(Cc3ccccc3)nn2)C(=O)c2ccccc2C1=O | Schistosoma mansoni | – | adult worms | 25 µM, 24 h | – | killing | 54% |
| COc1cnc2cccc(N3CCc4c(cc(Cn5ccnc5C)cc4-c4cn(C)nc4C(F)(F)F)C3=O)c2c1 | COV504 | cell growth, inhibitor | – | 120 h | – | EC50 | 0.0754 µM |
| CC(COc1ccccc1)N(CCCl)Cc1ccccc1 (stereo not drawn) | Nedd8-cullin1 interaction | neddylation, AlphaScreen | – | 100 µM | – | inhibition | -108% |
| CC1=C(Cc2cn(CCO)nn2)C(=O)c2ccccc2C1=O | Schistosoma mansoni | – | adult worms | 25 µM, 24 h | – | killing | 48% |
| CCOc1nc2cccc(C(=O)OC(C)OC(=O)OC3CCCCC3)c2n1Cc1ccc(-c2ccccc2-c2nnn[nH]2)cc1 (stereo not drawn) | Nedd8-cullin1 interaction | neddylation, AlphaScreen | – | 100 µM | – | inhibition | 105% |
| CCn1cc(-c2cc(Cn3ccoc3=N)cc3c2CCN([C@@H](C)c2cc(OC)ccn2)C3=O)c(C(F)(F)F)n1 | LCLC-97TM1 | cell growth, inhibitor | – | 120 h | – | EC50 | > 30 µM |

Some of these lines once more:
| SMILES | target or system | assay | system | setting | how to read | measurement | result |
| --- | --- | --- | --- | --- | --- | --- | --- |
| CC1=C(Cc2cn(Cc3ccccc3)nn2)C(=O)c2ccccc2C1=O | Schistosoma mansoni | – | adult worms | 25 µM, 24 h | – | killing | 54% |
| CC1=C(Cc2cn(CCN3CCC(=O)CC3)nn2)C(=O)c2ccccc2C1=O | Schistosoma mansoni | – | adult worms | 25 µM, 48 h | – | killing | 47.4% |
